Measured values from different studies.
Every numbered part comes from another study and shows a few of its results, in no order. Substitutions count along the parent as printed.

Set 1
Target: RING finger protein unkempt homolog, zinc fingers 1-6, GST-SBP tag (UNK, Homo sapiens, UniProt Q9C0B0, residues 30-357)
Sequence of UniProt Q9C0B0 (30-357, looked up): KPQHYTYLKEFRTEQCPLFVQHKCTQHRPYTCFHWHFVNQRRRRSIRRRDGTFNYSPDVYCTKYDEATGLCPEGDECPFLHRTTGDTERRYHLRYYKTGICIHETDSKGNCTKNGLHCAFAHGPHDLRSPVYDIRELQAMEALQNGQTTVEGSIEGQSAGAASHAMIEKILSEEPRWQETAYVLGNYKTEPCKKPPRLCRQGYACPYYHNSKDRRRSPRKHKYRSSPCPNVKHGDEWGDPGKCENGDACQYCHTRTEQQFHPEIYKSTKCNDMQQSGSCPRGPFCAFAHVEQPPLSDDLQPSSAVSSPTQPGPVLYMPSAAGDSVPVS
Method: RNA Bind-n-Seq
Molecule type: RNA
Matrix: in vitro
Tested at: not given
Setting: RNA with constant flanks, human-mouse chimeric sites, ends assumed
Relative to: input RNA pool
Direction: higher = stronger binding
All sequences stand within: GGGAGUUCUACAGUCCGACGAUC … CAACAGAGGAUUGAGCAUCA
Oligonucleotide	bound/input enrichment
UCAUUUUUCUCUUUUCUUUCUUUCCUUUAGGAAAAGCCUAAAGAUUAGGUUGUAAGAAAAAUAGAAGCCAUGUUUCGAAGACCUGUGUUACAGGUACUUCGUCAGUUUGUAAGACAUGAG	0.45 ratio
UUGUGCAUAUGAUGCUUAGAUGGUUUUUGCAAAAGCAGAAAUCGCUGCAAGGUAAUCACAAUAGAUAAAAGUGGUAUUUUAAACCUUUGAAAUAAAUGGAUGUAACUGUACCUUGGUACA	0.758 ratio
AAAGUGGACUAUGGCGAGUACAUGGAUAAAAAUAAUGUGAGGCGGCAAGCAACAACAAUCAUAGCUGAUAACAUUAUAUUUCUGAGUGACCAGACGAAAGAAAAGGCAUAGAACGGAUGA	1.36 ratio
GGACAUCUGUCAAAUUGUUAUGUUCCUGUGAAACAAGUGAGCACUUUUCAUAUACUAAUCUGCUUGUACAUCUGUAUGAUAGAGAAAUGUAAAUAUGUUAAUCCAAGCAAUGUGUCACUU	0.173 ratio
AAAGAGUGGAUAGAGUGUGCACACGGGAUCGGUGGGACCCGGGCGAAGAAAGAGUGCAAGAUAGAGUUCGAUGACUUCGAAGAGUGCUUGCUUCGGUACAAAACGAUGAGACGUGCACAU	0.266 ratio
UACUCAACUUUCUUGCCACAUUUUGAAUUCCAAGACAUUAUCCCUCCAGAUGACUUCCUAACGAGUGAUGAAGAGCAAGAUUUGGUUUUAUUUGGAACUAUGAGAGGUCAUGUGGUUGGA	0.233 ratio

Set 2
Target: CEP164, C-terminal peptide (human)
Method: DHFR complementation, deep sequencing
Matrix: yeast
Setting: single substitutions, model-inferred values
Relative to: wild type
Direction: higher = weaker binding
Parent: PDZK1, PDZ domain 2 (human); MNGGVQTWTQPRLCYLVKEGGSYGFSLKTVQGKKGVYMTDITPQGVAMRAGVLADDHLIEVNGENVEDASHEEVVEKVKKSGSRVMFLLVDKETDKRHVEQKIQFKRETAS; partner HNRVKVYRF
Variant	binding free energy change
V90L	-0.103 kcal/mol
G24E	1.22 kcal/mol
I41V	0.281 kcal/mol
Q44P	0.643 kcal/mol
V52S	1.72 kcal/mol
Y15V	-0.0893 kcal/mol

Set 3
Target: RNA binding protein fox-1 homolog 2, RRM domain, GST-SBP tag (RBFOX2, Homo sapiens, UniProt O43251-10, residues 100-194)
Method: RNA Bind-n-Seq
Molecule type: RNA
Matrix: in vitro
Tested at: 365 nM
Setting: natural RNA segment, single round, ends assumed
Relative to: no-protein control
Direction: higher = stronger binding
All sequences stand within: GGGAGUUCUACAGUCCGACGAUC … UGGAAUUCUCGGGUGCCAA
Target sequence (chain): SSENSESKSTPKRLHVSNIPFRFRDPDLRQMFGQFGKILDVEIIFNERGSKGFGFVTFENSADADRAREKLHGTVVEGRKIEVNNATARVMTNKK
Oligonucleotide	RBNS enrichment (R)
UGGCUGAUGCAGAGGCCUGCUAAGAGAACGUACUCUUACCUGCUGCCAGUGAGACAUCGUAUCUGUGCUUAGUCACUGAAGUGAGAACAUACUCCCGCCCCAAGGGAGGC	0.878
AAAUUAUAUUAUAGAAUUUAAAUAACUAGCUUUCACAAUCAGUUUGUGUGUAAAAUGUCAUUUAAAGUGUUUUCAAAUGCAUUGCUCUUACAAUUUAUUUUCCUUUAACU	0.502
AAGUGUUUGCUGCGUGGCAGAUUUCCUGUUCUUGUUCGCAGUUUGCCGACUGAAGAGUGUGGGAUUUCCGAGGCCCAGGUGAGCACGUCCAUCUCAGGAGGCGUGGAGGG	0.959
AUAUAUUUUAAAUAUACUGUGUUUGCACACACUGGUAGCUAUGUGUUUGCACACAUUGGUAGACUGUUAUCAUUUGUGGUGGGAACCCAUGUAAAUAAGUAGACUGUAAA	0.772
UAAUGCUUUUAGUAGAGUACUAGAUAGUAUCAGUUUUGGAUUCUUAUUGUUAUCACCUAUGUACAAUGGAAAGGGAUUUUAAGCACAAACCUGCUGCUCAUCUAACGUUG	0.338
CGUGCCUGCACACCGUUCUCUCCACCCUGCCUCCUUCCCACAGCAGAAGCAGGGCUCCACCCAGGCCUUCCCUUGGAGUCGGUGCAUCCAUGGGCUGCUAGACUCUUGCG	0.396
UGUAGUCCAGAACUGGGGAGGCCAGGAGAGCCGUUACUCACUCCAUGGCUCUCAGACCGCGUUCCUCUUUGGCCUUCCUUCCAGCCGAGCCGUCACCAUAAGUAAAUCAA	0.304
CUGAUAUUAUAAGCUUAAAACUAUCUUGAGGGGGAAAUGACUUCUUUUCUCCUUCUGUCCCUUUUCUCAAAAGCAUCUUUCCCCCAAAUGUAUGUCUCUAGGACAUUUUA	0.553

Other studies, line by line
Molecule	target	assay	test system	conditions	how to read	endpoint	result
PhoQ, residues 284 288 289 292 302 303 NSMLDC	PhoP, residues 12 14 15 18 19 SEGLL (Escherichia coli, UniProt P23836)	Sort-seq, measured: YFP reporter	E. coli	PhoQ-PhoP variant library, added: 10 µM Mg2+	relative to: high Mg2+ state, higher = stronger signaling	fold induction	18.1
